{"data": "Published values from different studies", "note": "Protocols differ between the studies behind these lines. ± gives the spread as reported."}
{"Compound": "Cc1ccc2ccc3ccc(C)nc3c2n1.O.[99Tc+].[C-]#[O+].[C-]#[O+].[C-]#[O+]", "assay": "RP-HPLC C18 column, measured: MeCN adduct", "test system": "MeCN:water 40:60, 0.1% TFA", "conditions": "isocratic elution", "quantity": "capacity factor", "result": 8.9}
{"Compound": "CC1=CC(C)(C)N=C2C=CC(=O)C=C12", "test system": "female Wistar Han rats, stomach", "conditions": "oral, 2 days", "quantity": "dose with stomach alterations", "result": "≥ 175 mg/kg/day"}
{"Compound": "CC[C@H](C)C(=O)N1CCC(NC(=O)Nc2ccc(OC(F)(F)F)c(F)c2)CC1", "test system": "healthy volunteers", "conditions": "oral, 2 mg single dose, 14 (unit not given)", "quantity": "subjects with severe TEAE", "result": "0%"}
{"Compound": "CC1N=C(c2ccccc2F)c2cc(Br)ccc2-n2cnc(C(=O)OC3OC(CO)C(O)C(O)C3O)c21 (stereo not shown)", "assay": "LC-MS/MS", "test system": "Swiss Webster mouse, female, urine", "conditions": "intravenous, 250 µg parent drug, 24 to 48 h", "quantity": "cumulative excretion", "result": "2 ± 0.7%"}
{"Compound": "O=c1cc(-c2ccccc2)oc2c(Br)c(O)c(O)c(O)c12", "test system": "C57BL/6 mouse, plasma", "conditions": "intravenous, 10 mg/kg", "quantity": "time of rapid decline", "result": "≤ 2 h"}
{"Compound": "COC(=O)C[C@](O)(CCCC(C)(C)OC(C)=O)C(=O)O[C@@H]1C(OC)=C[C@]23CCCN2CCc2cc4c(cc2[C@H]13)OCO4", "test system": "CD1 mouse, brain", "conditions": "oral, 1 mg/kg, 8 h, below quantification limit 1.00 ng/mL", "quantity": "tissue concentration", "result": "not detected"}
{"Compound": "CC(C)[C@H](NC(=O)CNC(=O)[C@H](CCC(N)=O)NC(=O)[C@H](C)N)C(=O)O", "test system": "human", "conditions": "20 mg/kg, 3 days, thrice daily dosing", "quantity": "discontinuation due to adverse events", "result": "0%"}
{"Compound": "CCC[C@@H]1O[C@@H]2C[C@H]3[C@@H]4C[C@H](F)C5=CC(=O)CC[C@]5(C)[C@@]4(F)[C@@H](O)C[C@]3(C)[C@]2(C(=O)CO)O1", "test system": "CD1 mice, plasma", "conditions": "intravenous, 0.15 mg/kg, with: budesonide 0.2 mg/kg", "quantity": "clearance", "result": "4.47 L/h/kg"}
{"Compound": "COc1cc(NC(=O)C(=O)c2c(C)n(Cc3ccc(Cl)cc3)c3ccc(C)cc23)ccn1", "test system": "female cynomolgus monkey, plasma", "conditions": "oral, 10 mg/kg", "quantity": "bioavailability", "result": "20.8%"}
{"Compound": "COc1ccc(NC(=O)Cn2c(=O)c3ccccc3n(CC(=O)Nc3cc([125I])c(OC)cc3OC)c2=O)cc1", "test system": "rat, muscle", "conditions": "intravenous, 5 min", "quantity": "tracer uptake", "result": "0.12 %ID/g"}
{"Compound": "CS(C)(=O)=Nc1ccc(-c2ccc(-c3nc4cc(O[C@@H]5CO[C@H]6[C@@H]5OC[C@H]6O)[nH]c4cc3F)cc2)cc1", "test system": "female C57BL/6 mouse, plasma", "conditions": "intravenous, 3 mg/kg", "quantity": "Vd", "result": "2.3 L/kg"}
{"Compound": "CC[C@H](C)[C@H](N)C(=O)N[C@H](C(=O)N[C@@H](CO)C(=O)N[C@H](C(=O)N[C@H](C(=O)NCC(=O)N[C@@H](CC(=O)O)C(=O)N[C@@H](Cc1c[nH]c2ccccc12)C(=O)N[C@H](C(=O)N[C@@H](CCCCN)C(=O)N[C@@H](CC(C)C)C(=O)N[C@H](C(=O)N[C@H](C(=O)N[C@@H](CC(=O)O)C(=O)N[C@H](C(=O)N[C@H](C(=O)N[C@@H](CC(N)=O)C(=O)N[C@@H](CCCCN)C(=O)N[C@@H](Cc1ccccc1)C(=O)N[C@H](C(=O)N[C@@H](CCCCN)C(=O)N[C@@H](CCCCN)C(=O)O)[C@@H](C)O)C(C)C)[C@@H](C)O)[C@@H](C)CC)[C@@H](C)CC)C(C)C)[C@@H](C)CC)[C@@H](C)O)[C@@H](C)CC", "assay": "circular dichroism", "test system": "POPC vesicles", "conditions": "pH 7.5", "quantity": "fractional helicity", "result": 0.77}
{"Compound": "CC(C)C[C@H](NC(=O)[C@H](Cc1ccc(O)cc1)NC(=O)[C@H](C)NC(=O)[C@H](CC(N)=O)NC(=O)[C@H](CC(C)C)NC(=O)[C@H](C)NC(=O)[C@@H](NC(=O)[C@H](CCCCN)NC(=O)CNC(=O)[C@@H](NC(=O)[C@H](CCCCN)NC(=O)[C@H](CCCCN)NC(=O)CNC(=O)[C@@H](NC(=O)[C@H](Cc1c[nH]cn1)NC(=O)[C@@H](NC(=O)[C@H](C)NC(=O)[C@H](CCCCN)NC(=O)[C@H](CCCCN)NC(=O)[C@H](Cc1ccccc1)NC(=O)[C@H](Cc1c[nH]c2ccccc12)NC(=O)[C@H](CCCCN)NC(=O)[C@H](CCCCN)NC(=O)[C@H](CC(C)C)NC(=O)CN)C(C)C)C(C)C)C(C)C)C(C)C)C(N)=O", "test system": "zebrafish embryos", "conditions": "1 h, 4, 28, 52 hpf", "quantity": "acute toxic concentration", "result": "5 µg/mL"}
{"Compound": "CC[C@H](C)[C@H](NC(=O)[C@@H](NC(=O)[C@H](CC(N)=O)NC(=O)[C@H](CCC(N)=O)NC(=O)[C@@H]1CCCN1C(=O)[C@@H](NC(=O)[C@H](Cc1ccc(O)cc1)NC(=O)CNC(=O)[C@H](Cc1ccc(O)cc1)NC(=O)[C@H](Cc1c[nH]c2ccccc12)NC(=O)[C@H](Cc1c[nH]cn1)NC(=O)[C@H](Cc1ccc(O)cc1)NC(=O)CCOCCOCCOCCOCCOCCOCCC(=O)NCCCN(CCCNC(=O)CCOCCOCCOCCOCCOCCOCCC(=O)N[C@@H](Cc1ccc(O)cc1)C(=O)N[C@@H](Cc1c[nH]cn1)C(=O)N[C@@H](Cc1c[nH]c2ccccc12)C(=O)N[C@@H](Cc1ccc(O)cc1)C(=O)NCC(=O)N[C@@H](Cc1ccc(O)cc1)C(=O)N[C@H](C(=O)N1CCC[C@H]1C(=O)N[C@@H](CCC(N)=O)C(=O)N[C@@H](CC(N)=O)C(=O)N[C@H](C(=O)N[C@H](C(=O)O)[C@@H](C)CC)C(C)C)[C@@H](C)O)CC(=O)NCCOCCOCCOCCOCCC(=O)N[C@@H](CCCCNC(=O)CC[C@H](C(=O)O)N1CCN(CC(=O)O)CCN(CC(=O)O)CC1)C(N)=O)[C@@H](C)O)C(C)C)C(=O)O [gallium-68 labelled]", "test system": "1-octanol/phosphate buffer", "conditions": "pH 7.4", "quantity": "logD", "result": "-2.52 ± 0.03"}
{"Compound": "Cc1ccc(/C=C/C(=O)O)cc1-c1cc2c(cc1C)C(C)(C)CCC2(C)C", "test system": "Sprague-Dawley rat, male", "conditions": "oral, 100 mg/kg, 24 h, sesame oil vehicle", "quantity": "blood cholesterol", "result": "50 ± 11 mg/dL"}
{"Compound": "[3H]c1sc(C)nc1C=C(C)C1CC2C(CCCC(C)C(O)C(C)C(=O)C(C)(C)C(O)CC(=O)O1)N2CCO (stereo not shown)", "test system": "CD2F1 mice, plasma", "conditions": "intravenous, 2.2 nmol/kg, 24 h", "quantity": "plasma concentration", "result": "0.0135 µg/mL"}
{"Compound": "CC[C@@H]1C[C@]1(NC(=O)[C@@H]1C[C@@]2(CN1C(=O)[C@@H](NC(=O)[C@@H](NC(=O)[C@@H]1CCCCN1C(C)C)C1CCCCC1)C(C)(C)C)C(C)(C)C21CCC1)C(=O)NS(=O)(=O)N1CCCC1", "assay": "measured: abdominal pain", "test system": "healthy human", "conditions": "oral, 50 mg, with: ritonavir 100 mg", "quantity": "subjects with adverse event", "result": "0%"}
{"Compound": "CC(C)C[C@H](NC(=O)[C@H](CCCCN)NC(=O)[C@H](CCC(=O)O)NC(=O)[C@H](C)NC(=O)[C@@H](NC(=O)[C@H](CCCCN)NC(=O)[C@H](CC(=O)O)NC(=O)[C@H](Cc1ccc(O)cc1)NC(=O)[C@H](Cc1ccccc1)NC(=O)[C@H](C)NC(=O)[C@H](CCCCN)NC(=O)[C@H](CC(C)C)NC(=O)[C@H](Cc1c[nH]c2ccccc12)NC(=O)[C@@H](N)CC(=O)O)C(C)C)C(=O)N[C@@H](CCCCN)C(=O)N[C@@H](CCC(=O)O)C(=O)N[C@@H](C)C(=O)N[C@@H](Cc1ccccc1)C(=O)N1CCC[C@H]1C(=O)N[C@@H](CC(=O)O)C(=O)N[C@@H](Cc1c[nH]c2ccccc12)C(=O)N[C@@H](C)C(=O)N[C@@H](CCCCN)C(=O)N[C@@H](C)C(=O)N[C@@H](C)C(=O)N[C@@H](Cc1ccc(O)cc1)C(=O)N[C@@H](CC(=O)O)C(=O)N[C@@H](CCCCN)C(=O)N[C@@H](C)C(=O)N[C@@H](C)C(=O)N[C@@H](CCC(=O)O)C(=O)N[C@@H](CCCCN)C(=O)N[C@@H](C)C(=O)N[C@@H](CCCCN)C(=O)N[C@@H](CCC(=O)O)C(=O)N[C@@H](C)C(=O)N[C@@H](C)C(=O)O", "test system": "cynomolgus monkey male, plasma", "conditions": "intravenous infusion, 8 mg/kg every other day, day 27", "quantity": "AUC(0-inf)", "result": "607 µg·h/mL"}
{"Compound": "CC(C)C[C@@H](N)C(=O)NCC(=O)N[C@H](C)C(=O)N[C@H](CO)C(=O)N[C@H](Cc1c[nH]c2ccccc12)C(=O)N[C@H](Cc1c[nH]cn1)C(=O)N[C@H](CCCNC(=N)N)C(=O)N1CCC[C@@H]1C(=O)N[C@H](CC(=O)O)C(=O)N[C@H](CCCCN)C(=O)N[C@H](CS)C(=O)N[C@H](CS)C(=O)N[C@H](CC(C)C)C(=O)NCC(=O)N[C@H](Cc1ccc(O)cc1)C(=O)N[C@H](CCC(N)=O)C(=O)N[C@H](CCCCN)C(=O)N[C@H](CCCNC(=N)N)C(=O)N1CCC[C@@H]1C(=O)N[C@H](CC(C)C)C(=O)N1CCC[C@@H]1C(N)=O", "assay": "LC-MS/MS", "test system": "rat plasma", "conditions": "500 ng/mL, 12 h, 25 °C, room temperature before extraction", "how to read": "baseline: nominal", "quantity": "accuracy", "result": "102%"}
{"Compound": "O=C(c1ccc(F)cc1)C1CCN(C2Cc3c(cccc3OCC[18F])CC2O)CC1 (single isomer, unassigned; (-))", "test system": "Sprague-Dawley rat, male, lung", "conditions": "intravenous, dose not given, 5 min", "quantity": "tissue uptake", "result": "2.25 ± 0.415 %ID/g"}
{"Compound": "CC(CCC(=O)NCC(=O)O)C1CCC2C3CCC4CC(OC5OC(C(=O)O)C(O)C(O)C5O)CCC4(C)C3CC(O)C12C (stereo not shown)", "test system": "human, SLCO1B1 *14/*15, plasma", "conditions": "geometric mean, sex-adjusted", "quantity": "plasma concentration", "result": "0.0654 µg/mL"}
{"Compound": "CN(C)C(CNC(=O)Nc1cc(C(F)(F)F)ccc1N1CCOCC1)c1ccncc1 (stereo not shown)", "test system": "mouse, serum", "conditions": "intraperitoneal, 120 mg/kg single dose", "quantity": "serum albumin", "result": "2.7 g/dL"}
